Results from different studies.
Protocols differ between the studies behind these lines. Several values in a cell are separate wells, animals, samples, runs or records. ± marks the error that the study gave.
U2AF2: U2AF2 148-342 (Homo sapiens, UniProt P26368)
UniProt P26368, sequence (whole entry, looked up): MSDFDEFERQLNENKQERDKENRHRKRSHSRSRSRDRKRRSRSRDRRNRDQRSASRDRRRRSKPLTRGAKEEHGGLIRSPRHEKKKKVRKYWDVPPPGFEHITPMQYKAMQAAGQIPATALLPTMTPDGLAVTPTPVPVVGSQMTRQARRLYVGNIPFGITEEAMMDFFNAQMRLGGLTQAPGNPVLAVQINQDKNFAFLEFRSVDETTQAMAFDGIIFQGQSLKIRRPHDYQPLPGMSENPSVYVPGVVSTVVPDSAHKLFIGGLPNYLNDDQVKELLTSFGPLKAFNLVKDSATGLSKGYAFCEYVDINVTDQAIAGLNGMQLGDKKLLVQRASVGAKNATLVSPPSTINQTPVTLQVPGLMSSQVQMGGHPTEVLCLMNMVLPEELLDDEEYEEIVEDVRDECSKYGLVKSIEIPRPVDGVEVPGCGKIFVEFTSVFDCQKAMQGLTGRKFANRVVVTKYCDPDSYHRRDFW
SNX27 fragment: SNX27 fragment (Rattus norvegicus)
T1: Tab1 residues 384-412 (Mus musculus); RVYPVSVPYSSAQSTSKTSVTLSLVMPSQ
B1: PRPS1 (human); sequence looked up; chain PNIKIFSGSSHQDLSQKIADRLGLELGKVVTKKFSNQETCVEIGESVRGEDVYIVQSGCGEINDNLMELLIMINACKIASASRVTAVIPCFPYARQDKKDKSRAPISAKLVANMLSVAGADHIITMDLHASQIQGFFDIPVDNLYAEPAVLKWIRENISEWRNCTIVSPDAGGAKRVTSIADRLNVDFALIHKERKKANEVDRMVLVGDVKDRVAILVDDMADTCGTICHAADKLLSAGATRVYAILTHGIFSGPAISRINNACFEAVVVTNTIPQEDKMKHCSKIQVIDISMILAEAIRRTHNGESVSYLFSHVPL
B2: mdfA (Bacillus subtilis, UniProt O31597); chain MLFLHDVWVNWFEGEENGYNVCHFHEWRKEDTVELLDQVPLLRVPSVLFHYIENDLSELPKGLLEDVHQKSYIRKNHERTKLEYCFVVTDGIGILAVDTIGYTIPVRKSRLIPRQEQLVYEMVKDVEPETYEFEPKKLESSKEYHILSLAPEHVRGLTRKERQIKQLMFMALDQLKGLKNRAEIGYWYTEWNPHMYEQIKRMSFEEIWDMLYNETIEGWSDKHLAFCENLIKGQPFFEKLWEMENESKVN
B3: Mapk14 I275G (Mus musculus, UniProt P47811); chain MSQERPTFYRQELNKTIWEVPERYQNLSPVGSGAYGSVCAAFDTKTGHRVAVKKLSRPFQSIIHAKRTYRELRLLKHMKHENVIGLLDVFTPARSLEEFNDVYLVTHLMGADLNNIVKCQKLTDDHVQFLIYQILRGLKYIHSADIIHRDLKPSNLAVNEDCELKILDFGLARHTDDEMTGYVATRWYRAPEIMLNWMHYNQTVDIWSVGCIMAELLTGRTLFPGTDHIDQLKLILRLVGTPGAELLKKISSESARNYIQSLAQMPKMNFANVFGGANPLAVDLLEKMLVLDSDKRITAAQALAHAYFAQYHDPDDEPVADPYDQSFESRDLLIDEWKSLTYDEVISFVPPPLDQEEMES
B4: PVRIG 41-172 (Homo sapiens, UniProt Q6DKI7); sequence looked up; chain TPEVWVQVRMEATELSSFTIRCGFLGSGSISLVTVSWGGPNGAGGTTLAVLHPERGIRQWAPARQARWETQSSISLILEGSGASSPCANTTFCCKFASFPEGSWEACGSLPPSSDPGLSAPPTPAPILRADL
B5: ING1 163-234 M191A (Arabidopsis thaliana, UniProt Q9LIQ6); sequence looked up; chain TSSNMDLDLPVDPNEPTYCICNQVSFGEAVACDNNACKIEWFHFGCVGLKEQPKGKWYCPECATVKKSRKGR
B6: ING1 163-234 Y180A (Arabidopsis thaliana, UniProt Q9LIQ6); sequence looked up; chain TSSNMDLDLPVDPNEPTACICNQVSFGEMVACDNNACKIEWFHFGCVGLKEQPKGKWYCPECATVKKSRKGR
B7: ING1 163-234 E202A (Arabidopsis thaliana, UniProt Q9LIQ6); sequence looked up; chain TSSNMDLDLPVDPNEPTYCICNQVSFGEMVACDNNACKIAWFHFGCVGLKEQPKGKWYCPECATVKKSRKGR
UniProt P20936, sequence (whole entry, unmodified, looked up): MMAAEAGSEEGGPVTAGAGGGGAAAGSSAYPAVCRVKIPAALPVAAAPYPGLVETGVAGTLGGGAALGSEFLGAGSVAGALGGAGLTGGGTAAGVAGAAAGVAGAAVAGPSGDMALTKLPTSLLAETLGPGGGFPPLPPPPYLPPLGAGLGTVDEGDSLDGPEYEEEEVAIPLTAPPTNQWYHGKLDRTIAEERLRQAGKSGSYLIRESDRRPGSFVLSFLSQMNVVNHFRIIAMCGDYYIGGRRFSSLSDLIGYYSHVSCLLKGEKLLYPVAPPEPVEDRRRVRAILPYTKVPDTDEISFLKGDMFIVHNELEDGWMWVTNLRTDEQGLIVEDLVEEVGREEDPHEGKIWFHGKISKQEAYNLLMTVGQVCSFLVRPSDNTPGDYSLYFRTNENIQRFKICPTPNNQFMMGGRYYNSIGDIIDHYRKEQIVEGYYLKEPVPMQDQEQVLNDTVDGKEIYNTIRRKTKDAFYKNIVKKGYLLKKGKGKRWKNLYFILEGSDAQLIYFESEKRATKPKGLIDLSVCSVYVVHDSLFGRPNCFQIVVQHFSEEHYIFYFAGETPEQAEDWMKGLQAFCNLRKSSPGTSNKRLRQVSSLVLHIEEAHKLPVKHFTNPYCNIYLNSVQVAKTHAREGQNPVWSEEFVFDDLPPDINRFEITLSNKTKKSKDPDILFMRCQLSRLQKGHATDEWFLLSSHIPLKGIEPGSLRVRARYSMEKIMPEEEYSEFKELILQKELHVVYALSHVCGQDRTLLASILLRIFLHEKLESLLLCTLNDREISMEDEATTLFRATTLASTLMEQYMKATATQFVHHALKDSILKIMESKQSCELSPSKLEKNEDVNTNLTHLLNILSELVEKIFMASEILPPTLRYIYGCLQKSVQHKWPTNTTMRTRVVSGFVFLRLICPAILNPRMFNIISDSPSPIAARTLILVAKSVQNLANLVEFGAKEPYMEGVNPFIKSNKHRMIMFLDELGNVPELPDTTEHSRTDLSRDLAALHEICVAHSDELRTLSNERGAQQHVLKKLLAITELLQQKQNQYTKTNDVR
UniProt O95619, sequence (whole entry, looked up): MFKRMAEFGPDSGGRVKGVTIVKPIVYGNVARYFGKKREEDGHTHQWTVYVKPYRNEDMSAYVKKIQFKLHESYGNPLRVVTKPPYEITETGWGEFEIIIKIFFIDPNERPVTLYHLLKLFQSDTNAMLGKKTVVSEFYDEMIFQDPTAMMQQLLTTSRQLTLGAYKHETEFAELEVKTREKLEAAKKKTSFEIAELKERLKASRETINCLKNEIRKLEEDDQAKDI
UniProt Q00535, sequence (whole entry, looked up): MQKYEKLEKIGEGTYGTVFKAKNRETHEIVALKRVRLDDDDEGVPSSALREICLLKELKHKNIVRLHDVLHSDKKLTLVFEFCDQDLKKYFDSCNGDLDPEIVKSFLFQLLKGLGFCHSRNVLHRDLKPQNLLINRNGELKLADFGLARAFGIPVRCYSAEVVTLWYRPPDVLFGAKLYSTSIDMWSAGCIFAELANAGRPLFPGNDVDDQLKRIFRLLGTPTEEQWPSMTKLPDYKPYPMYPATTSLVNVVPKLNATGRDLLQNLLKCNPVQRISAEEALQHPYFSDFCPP
UniProt Q8IXI2, sequence (whole entry, looked up): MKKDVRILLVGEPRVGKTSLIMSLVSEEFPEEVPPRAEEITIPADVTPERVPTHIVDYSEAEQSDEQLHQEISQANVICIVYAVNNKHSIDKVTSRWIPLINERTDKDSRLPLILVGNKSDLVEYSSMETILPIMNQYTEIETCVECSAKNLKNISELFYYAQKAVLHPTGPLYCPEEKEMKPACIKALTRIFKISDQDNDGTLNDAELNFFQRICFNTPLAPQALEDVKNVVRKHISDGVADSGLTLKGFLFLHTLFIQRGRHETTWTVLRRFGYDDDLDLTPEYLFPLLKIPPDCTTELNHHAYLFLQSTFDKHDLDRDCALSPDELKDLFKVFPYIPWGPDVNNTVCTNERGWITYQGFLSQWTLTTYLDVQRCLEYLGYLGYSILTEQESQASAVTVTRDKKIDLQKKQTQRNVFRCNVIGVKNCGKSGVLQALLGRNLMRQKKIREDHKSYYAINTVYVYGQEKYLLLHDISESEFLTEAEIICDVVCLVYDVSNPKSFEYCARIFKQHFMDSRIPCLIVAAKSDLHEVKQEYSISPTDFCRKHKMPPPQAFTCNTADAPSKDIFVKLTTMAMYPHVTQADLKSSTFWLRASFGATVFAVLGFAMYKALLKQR
UniProt Q6ZJM9, sequence (whole entry, looked up): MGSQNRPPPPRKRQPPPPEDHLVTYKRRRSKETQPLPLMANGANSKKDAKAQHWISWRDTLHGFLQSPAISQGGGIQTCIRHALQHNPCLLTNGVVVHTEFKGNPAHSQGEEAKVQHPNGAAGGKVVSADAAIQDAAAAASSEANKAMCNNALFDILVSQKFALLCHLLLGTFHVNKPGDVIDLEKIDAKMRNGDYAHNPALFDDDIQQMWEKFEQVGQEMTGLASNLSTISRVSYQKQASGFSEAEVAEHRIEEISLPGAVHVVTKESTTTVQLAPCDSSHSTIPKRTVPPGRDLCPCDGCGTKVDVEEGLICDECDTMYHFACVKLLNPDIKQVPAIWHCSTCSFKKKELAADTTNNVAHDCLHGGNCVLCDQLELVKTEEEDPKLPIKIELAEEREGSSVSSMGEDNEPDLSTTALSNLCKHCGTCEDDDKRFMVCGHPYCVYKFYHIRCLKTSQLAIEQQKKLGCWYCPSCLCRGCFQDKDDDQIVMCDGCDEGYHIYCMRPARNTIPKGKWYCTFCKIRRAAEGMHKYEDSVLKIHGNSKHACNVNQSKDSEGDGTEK
UniProt Q9ZU93, sequence (whole entry, looked up): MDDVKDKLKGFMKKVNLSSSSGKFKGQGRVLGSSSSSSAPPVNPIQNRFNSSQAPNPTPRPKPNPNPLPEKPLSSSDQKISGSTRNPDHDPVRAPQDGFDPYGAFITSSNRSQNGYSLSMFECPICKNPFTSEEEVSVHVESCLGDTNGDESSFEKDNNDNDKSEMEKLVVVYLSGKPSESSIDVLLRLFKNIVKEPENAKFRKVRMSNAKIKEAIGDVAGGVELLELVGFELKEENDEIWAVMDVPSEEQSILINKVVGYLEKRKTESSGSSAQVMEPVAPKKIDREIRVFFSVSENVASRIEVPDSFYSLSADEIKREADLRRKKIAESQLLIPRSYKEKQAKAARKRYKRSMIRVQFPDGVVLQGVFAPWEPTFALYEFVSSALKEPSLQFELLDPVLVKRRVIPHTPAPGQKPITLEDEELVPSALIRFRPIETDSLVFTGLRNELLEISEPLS
UniProt Q14141, sequence (whole entry, looked up): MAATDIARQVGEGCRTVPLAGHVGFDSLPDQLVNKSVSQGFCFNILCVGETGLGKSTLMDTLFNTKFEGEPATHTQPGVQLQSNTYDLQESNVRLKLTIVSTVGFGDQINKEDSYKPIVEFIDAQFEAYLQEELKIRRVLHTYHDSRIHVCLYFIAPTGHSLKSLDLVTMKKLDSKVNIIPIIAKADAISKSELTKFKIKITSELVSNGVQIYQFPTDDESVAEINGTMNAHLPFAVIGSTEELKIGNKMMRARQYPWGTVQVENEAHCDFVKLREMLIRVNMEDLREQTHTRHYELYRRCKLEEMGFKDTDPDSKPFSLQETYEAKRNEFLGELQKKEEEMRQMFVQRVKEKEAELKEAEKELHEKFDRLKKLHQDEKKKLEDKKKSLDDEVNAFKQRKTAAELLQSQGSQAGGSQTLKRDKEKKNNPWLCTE
UniProt Q9NVR5, sequence (whole entry, looked up): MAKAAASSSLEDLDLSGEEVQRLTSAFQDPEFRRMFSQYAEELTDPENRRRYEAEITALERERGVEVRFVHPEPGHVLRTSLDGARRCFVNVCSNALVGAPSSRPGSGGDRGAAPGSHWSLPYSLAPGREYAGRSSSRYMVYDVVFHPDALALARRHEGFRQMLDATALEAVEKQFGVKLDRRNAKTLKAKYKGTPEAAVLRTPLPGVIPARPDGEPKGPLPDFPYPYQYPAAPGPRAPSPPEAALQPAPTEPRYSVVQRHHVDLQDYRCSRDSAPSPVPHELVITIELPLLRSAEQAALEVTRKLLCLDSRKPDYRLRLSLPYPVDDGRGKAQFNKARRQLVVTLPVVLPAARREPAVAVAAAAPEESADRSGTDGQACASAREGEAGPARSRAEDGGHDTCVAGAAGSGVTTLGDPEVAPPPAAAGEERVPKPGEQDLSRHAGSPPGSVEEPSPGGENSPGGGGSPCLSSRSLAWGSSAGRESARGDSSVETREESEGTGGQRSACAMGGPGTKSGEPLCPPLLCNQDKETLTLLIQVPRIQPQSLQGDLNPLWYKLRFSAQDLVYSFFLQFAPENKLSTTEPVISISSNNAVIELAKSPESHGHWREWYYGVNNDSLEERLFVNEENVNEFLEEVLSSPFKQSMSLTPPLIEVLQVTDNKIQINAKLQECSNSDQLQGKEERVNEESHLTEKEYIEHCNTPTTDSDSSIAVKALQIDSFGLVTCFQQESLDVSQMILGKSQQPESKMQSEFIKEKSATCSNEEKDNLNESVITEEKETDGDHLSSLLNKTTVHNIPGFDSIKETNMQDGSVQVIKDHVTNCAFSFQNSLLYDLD

Substance = B1 (PRPS1); tested on = CYB5R4 knockout human cells; test = PP4 interaction, 3xFLAG-PP4C IP-MS; setting = concentration not given; how to read = baseline: CYB5R4 KO over parental; endpoint = log2 fold change; value = 0.92
Substance = PRKN full length, unphosphorylated (Homo sapiens, UniProt O60260); tested on = RHOT1 181-579 (Homo sapiens, UniProt Q8IXI2); test = cross-linking; endpoint = molecule per partner; value = 1
Substance = B2 (mdfA); tested on = clpC N domain 1-150 (Bacillus subtilis, UniProt P37571); test = ITC; endpoint = molecule per partner; value = 0.82 sites
Substance = GKAPRKQLAT (histone H3 peptide 14-23 (UniProt P68431); K18ac; sequence looked up); tested on = YEATS4 19-159 (Homo sapiens, UniProt O95619); test = ITC; system = peptide; endpoint = molecule per partner; value = 1
Substance = Malic enzyme 2 S121Q (human); test = enzyme activity, NADH absorbance; setting = without fumarate, with: L-malate varied; endpoint = Hill coefficient; value = 1.67 ± 0.07
Substance = CUUAUACUC (ssRNA); tested on = U2AF2; test = sequencing of bound RNA; system = RNA; setting = motif only; endpoint = Kd; value = 3230 nM
Substance = EEQWAREIGAQLRRMADDLNAQYER (BBC3 BH3 peptide 68-92 (Homo sapiens); N-acetyl, C-terminal amide); tested on = BCL2L1 BCL-xL ΔC H to A (Homo sapiens); test = ITC; system = peptide; endpoint = molecule per partner; value = 1.03
Substance = YAGSDSDLDTDDEFVPY (TELO2 483-497 (Homo sapiens); pT491); tested on = PIH1D1 1-180 (Homo sapiens, UniProt Q9NWS0); test = ITC; system = peptide; endpoint = molecule per partner; value = 0.7
Substance = B3 (Mapk14 I275G); tested on = T1, Tab1 residues 384-412 (Mus musculus); test = ITC; endpoint = molecule per partner; value = 0.8
Substance = B4 (PVRIG 41-172); tested on = NECTIN2 32-350 (Homo sapiens, UniProt Q92692); test = SEC-MALS; endpoint = molecule per partner; value = 1
Substance = EGF mature; tested on = EGFR Fc fusion fragment (Homo sapiens); test = ITC; endpoint = molecule per partner; value = 0.73 ± 0.0016 sites
Substance = CUCUUCCUU (ssRNA); tested on = U2AF2; test = sequencing of bound RNA; system = RNA; setting = motif only; endpoint = Kd; value = 2970 nM
Substance = ARTKQTARKSTG (histone H3 peptide 1-12; K4me1); tested on = Ehd3 (Oryza sativa, UniProt Q6ZJM9); test = ITC; system = peptide; endpoint = molecule per partner; value = 0.75
Substance = GTTCCTGAAGGGGGGGCGGGGTGGGTATAAAAGGGTCAAGTCAATCGGTCC (dsDNA; 5'-amino-C6 primer); tested on = SPT15 full length assumed (Saccharomyces cerevisiae, UniProt P13393); test = array; system = double-stranded DNA, one strand shown; setting = TBP alone; endpoint = Kd; value = 122.2 ± 0.7 nM
Substance = B5 (ING1 163-234 M191A); tested on = histone H3 1-10, K4me3; test = ITC; endpoint = molecule per partner; value = 1.02 ± 0.01
Substance = TERLVLRLNRKKKKVSWKDGTVDNE (INH3 27-51 (Arabidopsis thaliana, UniProt Q8S8F7)); tested on = PUX3 (Arabidopsis thaliana, UniProt Q9SUG6); test = ITC; system = peptide; endpoint = molecule per partner; value = 1.2 ± 0.1
Substance = GRIN2A fragment S1459E (sequence not shown); tested on = SNX27 fragment; test = ITC; endpoint = molecule per partner; value = 0.9
Substance = DPSDYAEPMDAVVKPRNEEENIYSVPHDS (ARHGAP35 residues 1083-1111; pY1087/pY1105, N-acetyl, C-amide); tested on = RASA1 174-444 C236S/C261S/C372S/C402S/R194C (Homo sapiens, UniProt P20936); test = ITC; system = peptide; endpoint = molecule per partner; value = 0.972 and 1.04 and 0.981 and 0.897
Substance = B6 (ING1 163-234 Y180A); tested on = histone H3 1-10, K4me3; test = ITC; endpoint = molecule per partner; value = 1.12 ± 0.01
Substance = KEAFWDRCLSAINLMSSKMLQINA; tested on = Cyclin-dependent kinase 5, with p25 (CDK5, Homo sapiens, UniProt Q00535); test = phosphotransferase activity, radiometric; system = peptide; setting = concentration not given, 10% DMSO, with: histone substrate; how to read = baseline: p5-WT peptide; endpoint = activity change; value = 52%
Substance = SEPTIN6 (Homo sapiens, UniProt Q14141); tested on = Septin2 (Mus musculus, UniProt P42208); test = co-sedimentation; endpoint = molecule per partner; value = 1
Substance = GRIN2A fragment (sequence not shown); tested on = SNX27 fragment; test = ITC; endpoint = molecule per partner; value = 1.2
Substance = ING1 PHD finger (Arabidopsis thaliana); tested on = H3 residues 1-10, K4me2; test = ITC; endpoint = molecule per partner; value = 1.02 ± 0.01
Substance = ASCC3 C-degron; tested on = APPBP2/ELOB/ELOC (Homo sapiens); test = ITC; endpoint = molecule per partner; value = 0.74
Substance = DLDSDDEY (TELO2 488-494 (Homo sapiens); pS491); tested on = DNAAF2 73-197 (Homo sapiens, UniProt Q9NVR5); test = ITC; system = peptide; endpoint = molecule per partner; value = 0.6
Substance = ING2 PHD finger (Arabidopsis thaliana); tested on = H3 residues 1-10, K4me1; test = ITC; endpoint = molecule per partner; value = 0.86 ± 0.03
Substance = human G6PD; tested on = CYB5R4 knockout human cells; test = PP4 interaction, 3xFLAG-PP4C IP-MS; setting = concentration not given; how to read = baseline: CYB5R4 KO over parental; endpoint = log2 fold change; value = 0.27
Substance = SAAAAGDDDDLYN (CDC48A 797-809 (Arabidopsis thaliana)); tested on = PUX2 157-273 (Arabidopsis thaliana, UniProt Q9ZU93); test = ITC; system = peptide; setting = 25 °C; endpoint = molecule per partner; value = 1.2 ± 0.1
Substance = B7 (ING1 163-234 E202A); tested on = histone H3 1-10, K4me3; test = ITC; endpoint = molecule per partner; value = 1.02

For quick reference, copied from above:
Substance = EEQWAREIGAQLRRMADDLNAQYER (BBC3 BH3 peptide 68-92 (Homo sapiens); N-acetyl, C-terminal amide); tested on = BCL2L1 BCL-xL ΔC H to A (Homo sapiens); test = ITC; system = peptide; endpoint = molecule per partner; value = 1.03
Substance = human G6PD; tested on = CYB5R4 knockout human cells; test = PP4 interaction, 3xFLAG-PP4C IP-MS; setting = concentration not given; how to read = baseline: CYB5R4 KO over parental; endpoint = log2 fold change; value = 0.27
Substance = PRKN full length, unphosphorylated (Homo sapiens, UniProt O60260); tested on = RHOT1 181-579 (Homo sapiens, UniProt Q8IXI2); test = cross-linking; endpoint = molecule per partner; value = 1
Substance = B3 (Mapk14 I275G); tested on = T1, Tab1 residues 384-412 (Mus musculus); test = ITC; endpoint = molecule per partner; value = 0.8
Substance = DLDSDDEY (TELO2 488-494 (Homo sapiens); pS491); tested on = DNAAF2 73-197 (Homo sapiens, UniProt Q9NVR5); test = ITC; system = peptide; endpoint = molecule per partner; value = 0.6
